Assay results pooled from the literature.
Every numbered part comes from another study and shows a few of its results, in no order.
Chain of UniProt P10721 (whole entry, unmodified, looked up): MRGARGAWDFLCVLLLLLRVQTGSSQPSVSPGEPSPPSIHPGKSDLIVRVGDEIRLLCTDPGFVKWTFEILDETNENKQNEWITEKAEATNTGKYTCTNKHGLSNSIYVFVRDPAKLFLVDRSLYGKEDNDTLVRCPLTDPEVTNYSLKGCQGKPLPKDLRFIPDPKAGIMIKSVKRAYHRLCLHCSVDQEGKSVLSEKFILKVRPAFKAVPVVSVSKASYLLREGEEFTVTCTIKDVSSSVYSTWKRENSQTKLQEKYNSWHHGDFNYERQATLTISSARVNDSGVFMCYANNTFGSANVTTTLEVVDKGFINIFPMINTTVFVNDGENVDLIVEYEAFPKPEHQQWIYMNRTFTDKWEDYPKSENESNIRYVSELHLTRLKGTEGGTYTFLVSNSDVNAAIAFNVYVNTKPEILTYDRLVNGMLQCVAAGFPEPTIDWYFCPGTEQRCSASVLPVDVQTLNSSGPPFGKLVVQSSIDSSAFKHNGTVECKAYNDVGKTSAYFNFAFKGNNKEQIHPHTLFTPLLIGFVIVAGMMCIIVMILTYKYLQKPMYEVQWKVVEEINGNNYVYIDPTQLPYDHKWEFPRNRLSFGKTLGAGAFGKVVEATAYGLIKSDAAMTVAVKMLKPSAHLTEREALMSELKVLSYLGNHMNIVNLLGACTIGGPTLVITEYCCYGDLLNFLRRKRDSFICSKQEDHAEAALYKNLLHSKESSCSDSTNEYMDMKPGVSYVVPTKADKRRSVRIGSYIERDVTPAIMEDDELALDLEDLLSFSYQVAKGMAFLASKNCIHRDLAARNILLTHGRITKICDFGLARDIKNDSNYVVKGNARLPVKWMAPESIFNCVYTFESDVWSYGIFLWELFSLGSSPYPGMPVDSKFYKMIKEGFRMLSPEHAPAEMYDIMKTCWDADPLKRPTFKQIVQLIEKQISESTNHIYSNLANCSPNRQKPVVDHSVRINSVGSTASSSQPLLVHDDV
Chain of UniProt Q9UK32 (whole entry, looked up): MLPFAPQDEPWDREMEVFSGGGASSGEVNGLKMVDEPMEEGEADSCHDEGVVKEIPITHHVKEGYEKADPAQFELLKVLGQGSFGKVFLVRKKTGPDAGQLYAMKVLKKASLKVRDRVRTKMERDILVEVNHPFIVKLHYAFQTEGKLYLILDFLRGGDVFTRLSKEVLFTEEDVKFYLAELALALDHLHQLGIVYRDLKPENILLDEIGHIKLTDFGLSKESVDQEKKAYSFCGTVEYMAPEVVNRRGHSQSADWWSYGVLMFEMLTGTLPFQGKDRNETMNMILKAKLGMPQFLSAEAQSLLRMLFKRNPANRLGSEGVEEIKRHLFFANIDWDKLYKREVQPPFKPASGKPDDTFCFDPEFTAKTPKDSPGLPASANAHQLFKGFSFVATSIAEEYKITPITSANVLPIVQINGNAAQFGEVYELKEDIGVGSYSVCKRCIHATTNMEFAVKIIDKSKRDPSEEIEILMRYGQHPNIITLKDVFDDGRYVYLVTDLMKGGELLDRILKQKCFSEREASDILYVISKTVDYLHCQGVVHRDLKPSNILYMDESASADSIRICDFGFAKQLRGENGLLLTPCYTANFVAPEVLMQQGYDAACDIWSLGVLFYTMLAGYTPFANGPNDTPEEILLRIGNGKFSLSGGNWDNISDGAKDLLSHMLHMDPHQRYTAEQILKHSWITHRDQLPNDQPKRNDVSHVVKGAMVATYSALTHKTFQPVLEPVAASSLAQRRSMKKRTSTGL
Chain of UniProt Q13188 (whole entry, looked up): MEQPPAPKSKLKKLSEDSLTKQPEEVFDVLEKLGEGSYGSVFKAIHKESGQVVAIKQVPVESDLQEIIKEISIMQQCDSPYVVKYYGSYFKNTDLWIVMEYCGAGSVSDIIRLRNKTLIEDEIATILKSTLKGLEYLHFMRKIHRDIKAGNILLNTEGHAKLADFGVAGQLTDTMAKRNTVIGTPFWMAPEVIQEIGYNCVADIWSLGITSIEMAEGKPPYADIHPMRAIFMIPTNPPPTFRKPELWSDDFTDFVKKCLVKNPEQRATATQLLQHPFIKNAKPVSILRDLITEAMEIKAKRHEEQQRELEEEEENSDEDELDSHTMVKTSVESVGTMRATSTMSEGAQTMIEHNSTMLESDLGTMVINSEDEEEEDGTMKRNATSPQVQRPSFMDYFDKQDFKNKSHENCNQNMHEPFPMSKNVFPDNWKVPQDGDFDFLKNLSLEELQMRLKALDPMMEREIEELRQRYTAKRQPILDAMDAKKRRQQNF
Chain of UniProt Q9UEE5 (whole entry, looked up): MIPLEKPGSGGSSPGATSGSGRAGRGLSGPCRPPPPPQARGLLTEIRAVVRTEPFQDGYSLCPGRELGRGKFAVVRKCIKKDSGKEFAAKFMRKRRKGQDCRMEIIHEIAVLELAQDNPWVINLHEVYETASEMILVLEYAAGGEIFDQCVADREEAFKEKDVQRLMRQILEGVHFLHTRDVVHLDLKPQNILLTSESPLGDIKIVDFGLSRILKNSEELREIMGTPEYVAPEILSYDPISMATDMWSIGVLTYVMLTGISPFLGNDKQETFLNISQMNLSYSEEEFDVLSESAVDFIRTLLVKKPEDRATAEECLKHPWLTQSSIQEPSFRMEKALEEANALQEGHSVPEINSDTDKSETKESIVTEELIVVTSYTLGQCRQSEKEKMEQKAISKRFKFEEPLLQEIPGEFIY
Chain of UniProt P54756 (whole entry, looked up): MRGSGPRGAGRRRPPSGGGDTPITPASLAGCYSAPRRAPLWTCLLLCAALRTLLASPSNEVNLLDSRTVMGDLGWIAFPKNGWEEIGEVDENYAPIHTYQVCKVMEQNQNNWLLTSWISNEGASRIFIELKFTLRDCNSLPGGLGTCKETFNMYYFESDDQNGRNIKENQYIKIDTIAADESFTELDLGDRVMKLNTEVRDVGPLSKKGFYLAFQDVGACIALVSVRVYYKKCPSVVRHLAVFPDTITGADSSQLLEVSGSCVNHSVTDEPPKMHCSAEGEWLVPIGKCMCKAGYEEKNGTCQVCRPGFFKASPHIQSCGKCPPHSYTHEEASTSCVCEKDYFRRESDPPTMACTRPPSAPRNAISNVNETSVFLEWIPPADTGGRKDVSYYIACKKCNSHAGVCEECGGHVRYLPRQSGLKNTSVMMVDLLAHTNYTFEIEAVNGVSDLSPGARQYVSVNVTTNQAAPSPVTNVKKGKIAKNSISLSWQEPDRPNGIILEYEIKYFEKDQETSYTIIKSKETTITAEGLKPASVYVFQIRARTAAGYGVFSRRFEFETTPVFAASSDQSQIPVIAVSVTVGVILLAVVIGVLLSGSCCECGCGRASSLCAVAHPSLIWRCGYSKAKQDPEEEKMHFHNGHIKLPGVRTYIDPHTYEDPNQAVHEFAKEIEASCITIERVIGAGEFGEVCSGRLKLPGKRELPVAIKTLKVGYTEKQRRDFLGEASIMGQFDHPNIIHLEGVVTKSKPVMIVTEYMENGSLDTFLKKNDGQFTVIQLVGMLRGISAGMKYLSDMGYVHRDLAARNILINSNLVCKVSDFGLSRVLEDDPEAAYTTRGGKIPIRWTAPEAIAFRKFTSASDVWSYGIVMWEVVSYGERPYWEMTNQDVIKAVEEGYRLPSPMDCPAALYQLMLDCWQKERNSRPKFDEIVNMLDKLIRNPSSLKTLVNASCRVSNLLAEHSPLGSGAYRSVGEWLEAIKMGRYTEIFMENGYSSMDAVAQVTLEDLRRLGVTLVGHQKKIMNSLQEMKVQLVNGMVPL
Chain of UniProt Q00534 (whole entry, looked up): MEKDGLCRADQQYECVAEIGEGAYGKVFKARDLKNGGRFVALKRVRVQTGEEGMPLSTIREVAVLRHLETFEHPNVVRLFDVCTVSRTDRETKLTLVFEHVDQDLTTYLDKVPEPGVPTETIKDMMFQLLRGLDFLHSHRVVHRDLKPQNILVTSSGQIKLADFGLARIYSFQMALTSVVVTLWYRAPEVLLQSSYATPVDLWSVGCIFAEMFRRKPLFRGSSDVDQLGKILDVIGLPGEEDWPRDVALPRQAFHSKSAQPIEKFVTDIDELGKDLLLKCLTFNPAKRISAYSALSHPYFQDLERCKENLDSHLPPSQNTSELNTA
Chain of UniProt Q8NE63 (whole entry, looked up): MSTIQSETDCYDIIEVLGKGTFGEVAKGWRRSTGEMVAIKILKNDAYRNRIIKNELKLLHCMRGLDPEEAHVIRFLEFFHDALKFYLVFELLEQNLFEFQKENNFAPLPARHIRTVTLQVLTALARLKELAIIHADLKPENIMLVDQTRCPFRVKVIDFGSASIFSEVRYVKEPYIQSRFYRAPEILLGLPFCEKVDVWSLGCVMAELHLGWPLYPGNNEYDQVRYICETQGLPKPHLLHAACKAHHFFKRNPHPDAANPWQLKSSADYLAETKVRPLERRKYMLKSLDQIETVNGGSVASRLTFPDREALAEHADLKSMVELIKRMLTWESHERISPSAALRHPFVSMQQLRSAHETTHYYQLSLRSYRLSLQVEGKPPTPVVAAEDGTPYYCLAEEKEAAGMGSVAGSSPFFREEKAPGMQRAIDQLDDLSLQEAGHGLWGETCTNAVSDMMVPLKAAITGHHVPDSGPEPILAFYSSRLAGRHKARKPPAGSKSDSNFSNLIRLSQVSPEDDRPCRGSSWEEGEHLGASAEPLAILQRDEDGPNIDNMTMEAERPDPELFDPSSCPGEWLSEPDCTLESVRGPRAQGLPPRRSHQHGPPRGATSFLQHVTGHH
Chain of UniProt Q96PF2 (whole entry, looked up): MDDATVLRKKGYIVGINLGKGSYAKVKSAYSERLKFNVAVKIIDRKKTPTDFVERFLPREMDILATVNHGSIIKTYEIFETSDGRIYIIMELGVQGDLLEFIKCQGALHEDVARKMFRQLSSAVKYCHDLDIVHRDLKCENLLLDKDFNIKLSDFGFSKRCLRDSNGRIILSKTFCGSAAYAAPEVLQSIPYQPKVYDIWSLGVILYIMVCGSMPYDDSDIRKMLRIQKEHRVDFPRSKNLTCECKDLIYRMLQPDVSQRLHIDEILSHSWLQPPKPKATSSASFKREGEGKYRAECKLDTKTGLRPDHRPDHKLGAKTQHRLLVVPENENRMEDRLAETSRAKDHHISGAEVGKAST

Set 1
Structure (SMILES): CC(C)n1cnc(-c2ccc(F)cc2)c1-c1ncc(C(=O)Nc2ccc(N3CCN(C)CC3)cc2)[nH]1
assay	system	conditions	patients with adverse event [%]
item: AST increase	patients with idiopathic pulmonary fibrosis	30 mg twice daily, trial, without standard of care	0
item: abnormal liver function test, grade 4	idiopathic pulmonary fibrosis patients	oral, 60 mg once daily	0
Phase 2a trial, item: hypertriglyceridaemia	human, idiopathic pulmonary fibrosis	30 mg once daily, grade 1	0
item: prostatic calcification, maximum grade 5	idiopathic pulmonary fibrosis patients	oral, 30 mg once daily	0
Phase 2a trial, item: hepatic steatosis	human, idiopathic pulmonary fibrosis	all compound arms total, grade 4	0
Phase 2a trial, item: hypoalbuminaemia	human, idiopathic pulmonary fibrosis	all compound arms total, grade 3	0
Phase 2a trial, item: hypocalcaemia	human, idiopathic pulmonary fibrosis	30 mg once daily, grade 3	0
Phase 2a trial, item: blood fibrinogen increased	human, idiopathic pulmonary fibrosis	60 mg once daily, grade 2	0
Phase 2a trial, item: blood urea increased	human, idiopathic pulmonary fibrosis	30 mg once daily, grade 5	0
Phase 2a trial, item: hypertriglyceridaemia	human, idiopathic pulmonary fibrosis	60 mg once daily, grade 1	0
Phase 2a trial, item: respiratory, thoracic, mediastinal disorders	human, idiopathic pulmonary fibrosis	30 mg once daily, grade 5	0

Set 2
SMILES: CN([C@@H]1CCc2c(CC(=O)O)c3ccccc3n2C1)S(=O)(=O)c1ccc(F)cc1
Effect on: cell-free assay
Method: competition with immobilised ligand
Tested at: 1 µM
target	remaining binding [%]
Dual specificity protein kinase CLK4 (CLK4, Homo sapiens, UniProt Q9HAZ1)	100
Epithelial discoidin domain-containing receptor 1 (DDR1, Homo sapiens, UniProt Q08345)	78
Mast/stem cell growth factor receptor Kit (KIT, Homo sapiens, UniProt P10721, A829P)	100
Mast/stem cell growth factor receptor Kit (KIT, Homo sapiens, UniProt P10721, D816V)	100
TRAF2 and NCK-interacting protein kinase (TNIK, Homo sapiens, UniProt Q9UKE5)	79
Mast/stem cell growth factor receptor Kit (KIT, Homo sapiens, UniProt P10721)	100
Serine/threonine-protein kinase 4 (STK4, Homo sapiens, UniProt Q13043)	98
Serine/threonine-protein kinase Nek10 (NEK10, Homo sapiens, UniProt Q6ZWH5)	85
Serine/threonine-protein kinase 3 (STK3, Homo sapiens, UniProt Q13188)	100
Epidermal growth factor receptor (EGFR, Homo sapiens, UniProt P00533, del752-759)	100
Mitogen-activated protein kinase kinase kinase 14 (MAP3K14, Homo sapiens, UniProt Q99558)	100
Citron Rho-interacting kinase (CIT, Homo sapiens, UniProt O14578)	100
Phosphatidylinositol 4,5-bisphosphate 3-kinase catalytic subunit alpha isoform (PIK3CA, Homo sapiens, UniProt P42336, H1047Y)	97
BDNF/NT-3 growth factors receptor (NTRK2, Homo sapiens, UniProt Q16620)	100
Ephrin type-A receptor 5 (EPHA5, Homo sapiens, UniProt P54756)	99

Set 3
SMILES: CSc1nc(-c2ccnc(N[C@@H](C)c3ccccc3)c2)c(-c2ccc(F)cc2)[nH]1 (racemic)
Effect on: enzyme activity
Mode: inhibitor
Tested at: 0.5 µM
Reference: control
target	remaining activity [%]
Serine/threonine-protein kinase WNK3 (WNK3, Homo sapiens, UniProt Q9BYP7)	97.6
Homeodomain-interacting protein kinase 2 (HIPK2, Homo sapiens, UniProt Q9H2X6)	99.9
Ribosomal protein S6 kinase alpha-5 (RPS6KA5, Homo sapiens, UniProt O75582)	97.3
3-phosphoinositide-dependent protein kinase 1 (PDPK1, Homo sapiens, UniProt O15530)	91.3
cAMP-dependent protein kinase catalytic subunit gamma (PRKACG, Homo sapiens, UniProt P22612)	115
Testis-specific serine/threonine-protein kinase 2 (TSSK2, Homo sapiens, UniProt Q96PF2)	78.2
Serine/threonine-protein kinase 17A (STK17A, Homo sapiens, UniProt Q9UEE5)	97.8
MAP kinase-activated protein kinase 3 (MAPKAPK3, Homo sapiens, UniProt Q16644)	107
Tyrosine-protein kinase receptor UFO (AXL, Homo sapiens, UniProt P30530)	109
Cyclin-dependent kinase 6, with cyclin D3 (CDK6, Homo sapiens, UniProt Q00534)	98.3
Serine/threonine-protein kinase 16 (STK16, Homo sapiens, UniProt O75716)	95.1
Cyclin-dependent kinase 4, with cyclin D3 (CDK4, Homo sapiens, UniProt P11802)	111
Calcium/calmodulin-dependent protein kinase type II subunit beta (CAMK2B, Homo sapiens, UniProt Q13554)	89.2
Ephrin type-B receptor 1 (EPHB1, Homo sapiens, UniProt P54762)	96.4
Ephrin type-B receptor 4 (EPHB4, Homo sapiens, UniProt P54760)	99.9
Cyclin-dependent kinase 1, with cyclin B (CDK1, Homo sapiens, UniProt P06493)	106
Homeodomain-interacting protein kinase 4 (HIPK4, Homo sapiens, UniProt Q8NE63)	95.2
Ribosomal protein S6 kinase alpha-6 (RPS6KA6, Homo sapiens, UniProt Q9UK32)	93.1
Mitogen-activated protein kinase kinase kinase kinase 4 (MAP4K4, Homo sapiens, UniProt O95819)	91.6
Phosphorylase b kinase gamma catalytic chain, skeletal muscle/heart isoform (PHKG1, Homo sapiens, UniProt Q16816)	91.8
Tyrosine-protein kinase Srms (SRMS, Homo sapiens, UniProt Q9H3Y6)	104
Ephrin type-A receptor 4 (EPHA4, Homo sapiens, UniProt P54764)	93.1
Dual specificity tyrosine-phosphorylation-regulated kinase 3 (DYRK3, Homo sapiens, UniProt O43781)	94.2
Tyrosine-protein kinase Blk (BLK, Homo sapiens, UniProt P51451)	110

Set 4
Species: human
Matrix: microsomes or S9
Tested at: 2 µM
Time: 0.5 h
SMILES	remaining compound [%]
CNC1=C(c2cccc(C)n2)C(=O)C(c2ccc(Cl)cc2Cl)O1 (stereo not shown)	4.34
Cc1noc(C)c1S(=O)(=O)N1CCCC(Oc2nc(C(C)C)nc3c2CCOCC3)C1 (stereo not shown)	0.288
Cc1ccc(C(OC(=O)CC(C)C)c2cc(=O)cc[nH]2)cc1 (stereo not shown)	48.4
O=C(O)CCCCC/N=C1\CCc2ccccc2N1	> 99.9
Brc1ccc(C2CC(c3ccc(Br)cc3)n3ncnc3N2)cc1 (stereo not shown)	59.5
c1ccc(Cc2nc(Cn3cc(-c4cncnc4)nn3)cs2)cc1	> 100
Cc1noc(C)c1-c1cc(CCC2CNCCO2)ncn1 (stereo not shown)	> 100
COC(=O)c1cc(Cl)ccc1C1CCN(CCN2CCc3ccccc3C2=O)CC1	0.792
C=CCn1c(=O)n(Cc2cccnc2)c2nc(N)nc(Cl)c21	82
OC1(Cc2nc(-c3cnccn3)no2)CCCCC1	87.8
O=S1(=O)N=C(N2CCCCC2)c2ccccc21	98.9

For quick reference, copied from above (set 2):
target	remaining binding [%]
Epithelial discoidin domain-containing receptor 1 (DDR1, Homo sapiens, UniProt Q08345)	78
Serine/threonine-protein kinase Nek10 (NEK10, Homo sapiens, UniProt Q6ZWH5)	85
Dual specificity protein kinase CLK4 (CLK4, Homo sapiens, UniProt Q9HAZ1)	100
Phosphatidylinositol 4,5-bisphosphate 3-kinase catalytic subunit alpha isoform (PIK3CA, Homo sapiens, UniProt P42336, H1047Y)	97
Ephrin type-A receptor 5 (EPHA5, Homo sapiens, UniProt P54756)	99
Mitogen-activated protein kinase kinase kinase 14 (MAP3K14, Homo sapiens, UniProt Q99558)	100
Mast/stem cell growth factor receptor Kit (KIT, Homo sapiens, UniProt P10721)	100
TRAF2 and NCK-interacting protein kinase (TNIK, Homo sapiens, UniProt Q9UKE5)	79
Mast/stem cell growth factor receptor Kit (KIT, Homo sapiens, UniProt P10721, A829P)	100
